Measured values from different studies.
A part holds a random share of what one study measured.
Sequence of UniProt P19784 (whole entry, looked up): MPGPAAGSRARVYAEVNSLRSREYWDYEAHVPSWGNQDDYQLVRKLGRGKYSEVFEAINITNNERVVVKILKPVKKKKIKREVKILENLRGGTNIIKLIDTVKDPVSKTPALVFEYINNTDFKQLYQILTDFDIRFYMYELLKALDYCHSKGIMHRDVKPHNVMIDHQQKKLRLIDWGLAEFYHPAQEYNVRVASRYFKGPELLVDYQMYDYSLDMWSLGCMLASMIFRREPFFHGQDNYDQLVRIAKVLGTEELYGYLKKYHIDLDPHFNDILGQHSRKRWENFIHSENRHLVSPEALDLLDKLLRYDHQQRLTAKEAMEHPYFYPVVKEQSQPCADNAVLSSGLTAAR
Sequence of UniProt Q99558 (whole entry, looked up): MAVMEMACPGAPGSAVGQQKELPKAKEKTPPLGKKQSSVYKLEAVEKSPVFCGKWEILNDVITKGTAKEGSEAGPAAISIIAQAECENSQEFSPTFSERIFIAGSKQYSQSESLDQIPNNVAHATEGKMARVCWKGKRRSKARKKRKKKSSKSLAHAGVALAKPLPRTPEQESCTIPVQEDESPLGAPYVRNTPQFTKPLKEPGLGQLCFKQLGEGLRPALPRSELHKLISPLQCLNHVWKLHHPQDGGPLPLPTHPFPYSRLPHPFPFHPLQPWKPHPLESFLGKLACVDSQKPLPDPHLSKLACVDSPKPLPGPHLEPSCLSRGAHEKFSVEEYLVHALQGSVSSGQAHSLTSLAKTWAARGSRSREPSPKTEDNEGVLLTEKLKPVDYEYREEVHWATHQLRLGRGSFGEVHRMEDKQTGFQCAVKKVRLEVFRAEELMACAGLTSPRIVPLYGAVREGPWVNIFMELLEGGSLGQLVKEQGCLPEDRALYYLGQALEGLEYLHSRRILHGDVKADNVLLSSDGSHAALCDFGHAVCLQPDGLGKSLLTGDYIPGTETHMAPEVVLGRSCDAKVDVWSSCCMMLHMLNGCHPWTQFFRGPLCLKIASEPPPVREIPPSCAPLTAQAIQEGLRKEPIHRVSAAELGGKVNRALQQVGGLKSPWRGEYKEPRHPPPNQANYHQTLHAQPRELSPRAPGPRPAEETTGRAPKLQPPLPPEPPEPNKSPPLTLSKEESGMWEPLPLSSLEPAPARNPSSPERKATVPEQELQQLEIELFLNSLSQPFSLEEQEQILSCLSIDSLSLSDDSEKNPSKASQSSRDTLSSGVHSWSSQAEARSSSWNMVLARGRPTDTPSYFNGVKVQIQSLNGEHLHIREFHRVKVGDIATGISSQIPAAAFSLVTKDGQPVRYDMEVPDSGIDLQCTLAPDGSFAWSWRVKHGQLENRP
Sequence of UniProt P06239 (whole entry, looked up): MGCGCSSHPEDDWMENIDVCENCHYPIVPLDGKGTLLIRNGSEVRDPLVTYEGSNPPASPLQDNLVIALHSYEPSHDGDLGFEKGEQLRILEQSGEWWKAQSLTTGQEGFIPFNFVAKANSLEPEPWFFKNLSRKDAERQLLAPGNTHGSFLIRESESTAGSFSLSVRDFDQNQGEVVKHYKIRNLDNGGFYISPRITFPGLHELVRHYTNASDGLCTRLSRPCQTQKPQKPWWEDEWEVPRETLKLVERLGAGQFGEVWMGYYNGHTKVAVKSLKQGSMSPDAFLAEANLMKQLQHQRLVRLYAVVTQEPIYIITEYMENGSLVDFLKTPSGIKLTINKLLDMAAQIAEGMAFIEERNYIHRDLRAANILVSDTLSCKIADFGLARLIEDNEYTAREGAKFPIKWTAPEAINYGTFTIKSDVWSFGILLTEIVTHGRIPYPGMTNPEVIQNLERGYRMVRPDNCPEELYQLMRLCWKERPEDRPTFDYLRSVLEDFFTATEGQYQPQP
Sequence of UniProt Q15831 (whole entry, looked up): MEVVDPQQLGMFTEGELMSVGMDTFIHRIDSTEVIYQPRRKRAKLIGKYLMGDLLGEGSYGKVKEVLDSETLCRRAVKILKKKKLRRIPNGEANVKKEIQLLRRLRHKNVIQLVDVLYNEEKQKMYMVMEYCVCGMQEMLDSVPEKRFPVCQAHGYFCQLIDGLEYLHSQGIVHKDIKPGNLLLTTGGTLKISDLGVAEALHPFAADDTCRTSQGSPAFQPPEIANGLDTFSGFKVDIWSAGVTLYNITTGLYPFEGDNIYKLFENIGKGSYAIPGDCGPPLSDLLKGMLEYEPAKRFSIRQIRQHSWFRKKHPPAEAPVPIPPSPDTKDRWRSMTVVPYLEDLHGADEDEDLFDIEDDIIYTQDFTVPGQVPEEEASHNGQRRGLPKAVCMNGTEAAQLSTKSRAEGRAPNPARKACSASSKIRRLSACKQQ
Sequence of UniProt P42681 (whole entry, looked up): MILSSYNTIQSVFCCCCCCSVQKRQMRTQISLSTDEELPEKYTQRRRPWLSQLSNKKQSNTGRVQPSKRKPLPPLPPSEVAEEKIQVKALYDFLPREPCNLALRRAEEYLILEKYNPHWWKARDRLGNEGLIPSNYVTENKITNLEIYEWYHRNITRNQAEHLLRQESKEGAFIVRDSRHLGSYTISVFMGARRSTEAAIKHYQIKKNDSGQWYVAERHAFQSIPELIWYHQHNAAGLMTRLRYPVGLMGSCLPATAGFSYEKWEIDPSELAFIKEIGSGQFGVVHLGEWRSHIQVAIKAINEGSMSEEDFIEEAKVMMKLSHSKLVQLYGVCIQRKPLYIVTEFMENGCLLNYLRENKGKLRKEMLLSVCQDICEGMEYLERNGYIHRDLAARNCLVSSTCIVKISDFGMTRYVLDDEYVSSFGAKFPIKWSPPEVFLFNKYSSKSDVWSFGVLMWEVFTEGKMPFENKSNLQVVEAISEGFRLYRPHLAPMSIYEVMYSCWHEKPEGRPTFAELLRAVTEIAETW
Sequence of UniProt O75716 (whole entry, looked up): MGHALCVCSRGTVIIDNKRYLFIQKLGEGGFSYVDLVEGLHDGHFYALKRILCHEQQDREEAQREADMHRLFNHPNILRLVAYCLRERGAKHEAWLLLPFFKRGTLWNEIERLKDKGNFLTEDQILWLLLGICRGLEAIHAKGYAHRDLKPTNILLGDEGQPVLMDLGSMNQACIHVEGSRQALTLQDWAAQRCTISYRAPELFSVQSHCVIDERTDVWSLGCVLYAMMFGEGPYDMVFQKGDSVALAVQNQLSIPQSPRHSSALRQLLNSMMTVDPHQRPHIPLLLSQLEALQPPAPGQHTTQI
Sequence of UniProt Q12851 (whole entry, looked up): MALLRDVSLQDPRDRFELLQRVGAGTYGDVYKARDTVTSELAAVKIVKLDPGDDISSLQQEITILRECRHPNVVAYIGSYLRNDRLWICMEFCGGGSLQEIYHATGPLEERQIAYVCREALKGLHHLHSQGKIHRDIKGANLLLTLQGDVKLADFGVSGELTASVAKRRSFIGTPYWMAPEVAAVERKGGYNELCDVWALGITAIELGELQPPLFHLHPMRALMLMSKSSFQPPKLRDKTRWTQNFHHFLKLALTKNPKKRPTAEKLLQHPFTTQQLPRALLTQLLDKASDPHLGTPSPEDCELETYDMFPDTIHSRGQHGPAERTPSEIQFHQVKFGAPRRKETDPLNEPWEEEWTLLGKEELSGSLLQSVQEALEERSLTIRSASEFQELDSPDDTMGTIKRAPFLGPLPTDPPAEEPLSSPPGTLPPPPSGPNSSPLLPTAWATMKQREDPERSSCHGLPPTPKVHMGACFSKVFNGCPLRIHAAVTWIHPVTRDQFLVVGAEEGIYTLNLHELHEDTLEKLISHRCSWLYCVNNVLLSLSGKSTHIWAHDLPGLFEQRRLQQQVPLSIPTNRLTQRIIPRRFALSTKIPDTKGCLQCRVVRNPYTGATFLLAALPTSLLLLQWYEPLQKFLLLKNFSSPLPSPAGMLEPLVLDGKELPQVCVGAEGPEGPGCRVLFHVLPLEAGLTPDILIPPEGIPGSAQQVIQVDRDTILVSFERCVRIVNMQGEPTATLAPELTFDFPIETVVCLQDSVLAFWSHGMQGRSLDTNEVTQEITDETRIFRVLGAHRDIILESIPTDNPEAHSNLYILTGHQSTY
Sequence of UniProt Q00537 (whole entry, looked up): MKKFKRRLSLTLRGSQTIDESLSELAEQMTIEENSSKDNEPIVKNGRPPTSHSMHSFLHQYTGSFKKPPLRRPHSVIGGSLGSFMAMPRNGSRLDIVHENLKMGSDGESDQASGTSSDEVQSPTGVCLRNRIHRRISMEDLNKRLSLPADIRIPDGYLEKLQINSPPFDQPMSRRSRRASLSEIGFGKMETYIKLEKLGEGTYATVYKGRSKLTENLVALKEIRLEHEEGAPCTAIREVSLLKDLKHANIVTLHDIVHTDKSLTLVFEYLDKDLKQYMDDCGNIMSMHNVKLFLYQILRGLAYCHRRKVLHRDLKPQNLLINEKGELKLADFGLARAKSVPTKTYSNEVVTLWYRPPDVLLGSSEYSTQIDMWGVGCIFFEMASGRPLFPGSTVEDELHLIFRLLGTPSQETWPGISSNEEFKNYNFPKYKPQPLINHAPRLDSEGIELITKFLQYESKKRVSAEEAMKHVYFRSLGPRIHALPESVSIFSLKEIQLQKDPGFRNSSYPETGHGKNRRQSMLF
Sequence of UniProt P49137 (whole entry, looked up): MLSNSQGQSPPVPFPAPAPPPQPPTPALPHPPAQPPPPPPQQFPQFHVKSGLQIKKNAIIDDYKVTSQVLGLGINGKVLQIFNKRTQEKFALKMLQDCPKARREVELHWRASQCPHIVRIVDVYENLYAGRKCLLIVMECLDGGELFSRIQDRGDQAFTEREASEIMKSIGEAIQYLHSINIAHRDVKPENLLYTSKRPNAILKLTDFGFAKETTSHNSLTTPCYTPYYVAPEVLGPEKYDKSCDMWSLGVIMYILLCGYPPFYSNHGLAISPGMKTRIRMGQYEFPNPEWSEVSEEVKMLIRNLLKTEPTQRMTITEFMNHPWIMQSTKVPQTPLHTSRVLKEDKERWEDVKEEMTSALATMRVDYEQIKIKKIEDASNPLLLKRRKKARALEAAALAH

Block 1
Host: mouse
Sample: microsomes or S9
Concentration: 2 µM
Time: 0.5 h
Compound | remaining compound
CN(C(=O)CN(c1ccc(Cl)c(Cl)c1)S(C)(=O)=O)C(CN1CCCC1)c1ccc(-c2ccnc(Cl)c2)cc1 (stereo not drawn) | 9.01%
COc1ccc(CCc2n[nH]c(NC(=O)Cn3cc(OC)c(=O)cc3C)n2)cc1 | 95.2%
CC1CCC(NC(=O)c2ccc(CN3C(=O)NC4(CCS(=O)(=O)CC4)C3=O)cc2)CC1 (stereo not drawn) | 66.1%
O=C(O)c1sc(C(=O)O)c(OCCO)c1OCCO | 66.3%
COc1ccc(/C=C/c2cc(OC(C)=O)cc(OC3OC(COC(C)=O)C(OC(C)=O)C(OC(C)=O)C3OC(C)=O)c2)cc1OC(C)=O (stereo not drawn) | 0.783%
CC(NS(C)(=O)=O)c1nnc(N2CCC(C(C)(C)C)C2)n1CC1CCCCO1 (stereo not drawn) | 6.22%
CC1=C(COc2ccc3ccc(=O)oc3c2)[C@@]2(C)CCC(=O)C(C)(C)[C@@H]2CC1 | 0%

Block 2
SMILES: COc1cc2ncnc(N3CCN(C(=O)Nc4ccc(Oc5ccccc5)cc4)CC3)c2cc1OC
Read-out: enzyme activity
Action: inhibitor
Concentration: 0.5 µM
Relative to: control
target | remaining activity
LCK (Homo sapiens, UniProt P06239) | 92.3%
RPS6KA2 (Homo sapiens, UniProt Q15349) | 86.1%
ULK2 (Homo sapiens, UniProt Q8IYT8) | 102%
ARAF (Homo sapiens, UniProt P10398) | 105%
FRK (Homo sapiens, UniProt P42685) | 90.2%
TBK1 (Homo sapiens, UniProt Q9UHD2) | 96.3%
NEK1 (Homo sapiens, UniProt Q96PY6) | 92.6%
JAK3 (Homo sapiens, UniProt P52333) | 107%
FGFR1 (Homo sapiens, UniProt P11362) | 89.6%
NEK6 (Homo sapiens, UniProt Q9HC98) | 103%
EPHA3 (Homo sapiens, UniProt P29320) | 93.7%
MAPKAPK2 (Homo sapiens, UniProt P49137) | 102%
MAP3K14 (Homo sapiens, UniProt Q99558) | 105%
MAP2K2 (Homo sapiens, UniProt P36507) | 99.3%

Block 3
Compound: CNC(=O)Nc1ccc2c(c1)[C@@]1(CC2)OC(=O)N(CC(=O)N(Cc2ccc(F)cc2)[C@@H](C)C(F)(F)F)C1=O
Technique: competition with immobilised ligand
Concentration: 1 µM
target | read-out | remaining binding [%]
MAP4K2 (Homo sapiens, UniProt Q12851) | cell-free assay | 92
MAP3K4 (Homo sapiens, UniProt Q9Y6R4) | cell-free assay | 87
STK11 (Homo sapiens, UniProt Q15831) | cell-free assay | 100
TXK (Homo sapiens, UniProt P42681) | binding | 100
PRKD3 (Homo sapiens, UniProt O94806) | cell-free assay | 100
CDK17 (Homo sapiens, UniProt Q00537) | cell-free assay | 88
STK16 (Homo sapiens, UniProt O75716) | cell-free assay | 99
CSNK2A2 (Homo sapiens, UniProt P19784) | cell-free assay | 90

Block 4
Organism: Sarcocystis neurona
Read-out: parasite growth
Concentration: 10 µM
Time: 96 h
Setting: secondary screen
SMILES | inhibition
C[C@]12CCC(=O)C=C1CC[C@@H]1[C@@H]2[C@@H](O)C[C@@]2(C)[C@H]1CC[C@]2(O)C(=O)CO | -15%
CN1[C@@H]2CC[C@H]1C[C@@H](OC(=O)C(CO)c1ccccc1)C2 (stereo partly drawn) | -25.7%
CC(Oc1c(Cl)cccc1Cl)C1=NCCN1 (stereo not drawn) | -6.7%
CN(C)CCCC1(c2ccc(F)cc2)OCc2cc(C#N)ccc21 (stereo not drawn) | -14.4%
COc1ccccc1N1CCN(CC(O)COc2cccc3ccccc23)CC1 (stereo not drawn) | -36.6%
CC(C)NCC(O)COc1ccc(COCCOC(C)C)cc1 (stereo not drawn) | -19.4%
CC(=O)OCC[N+](C)(C)C | -14.2%
